Experimental data from different studies.
Lines come from different studies, so protocols differ. ± gives the spread as reported.
CNR1: Cannabinoid receptor 1 (CNR1, Homo sapiens, UniProt P21554)
gdpP residues 84-659: gdpP, residues 84-659 (Bacillus subtilis, UniProt P37484)
rhlR: HTH-type quorum-sensing regulator RhlR (rhlR, Pseudomonas aeruginosa, UniProt P54292)
Ryanodine receptor 1: Ryanodine receptor 1 (Oncorhynchus mykiss, UniProt A0A8C7UX14)

Substance	target	test	test system	conditions	how to read	quantity	value
CC(=O)OC[C@H]1O[C@@H]([S-])[C@H](OC(C)=O)[C@@H](OC(C)=O)[C@@H]1OC(C)=O.CCP(CC)CC.[Au+]	Recombining binding protein suppressor of hairless, DNA-bound (Homo sapiens, UniProt Q06330)	ChIP-qPCR	NICD-transfected HEK-293T	2.5 µM, 24 h, RBPJ sites of reporter	–	receptor occupancy reduction	50%
CSCC[C@H](N)C(=O)O	bioB (Escherichia coli, UniProt P12996)	enzyme activity, inhibitor	–	500 µM	–	remaining activity	72%
CC[C@H](C)[C@H](NC(=O)[C@H](C)NC(=O)[C@H](CO)NC(=O)[C@@H](NC(=O)[C@H](CCC(=O)O)NC(=O)[C@H](CCC(=O)O)NC(=O)[C@H](CCC(N)=O)NC(=O)[C@H](CCCCN)NC(=O)[C@H](CCCNC(=N)N)NC(=O)[C@@H](N)CCCCN)C(C)C)C(=O)N[C@H](C(=O)N[C@H](C(=O)N[C@@H](CCC(N)=O)C(=O)N[C@@H](CCCNC(=N)N)C(=O)N[C@@H](C)C(=O)N[C@@H](Cc1ccc(O)cc1)C(=O)N[C@@H](CCCNC(=N)N)C(=O)N[C@@H](CCCNC(=N)N)C(=O)N[C@@H](Cc1ccc(O)cc1)C(=O)N[C@@H](CC(C)C)C(=O)N[C@@H](CC(C)C)C(=O)N[C@@H](CCCCN)C(=O)N[C@@H](CCC(N)=O)C(=O)N[C@@H](CCCCN)C(=O)N[C@H](C(=O)N[C@@H](CCCCN)C(=O)N[C@@H](CCCCN)C(=O)O)C(C)C)[C@@H](C)CC)C(C)C	Calmodulin (CAM, Paramecium tetraurelia, UniProt P07463)	–	–	3 to 1 µM, pH 7.4, 22 °C, apo CaM residues 1-148	baseline: peptide alone	fluorescence emission increase	13%
CC(C)(NC(=O)c1nn(Cc2ccc(F)cc2)c2ccccc12)C1CCN(C(N)=O)CC1	CNR1	calcium mobilization, agonist	CHO-K1 expressing Gαq16	–	baseline: CP55,940 maximum	Emax	70 ± 1%
Nc1ncnc2c1ncn2[C@@H]1O[C@@H]2CO[P@@](=O)(S)O[C@H]3[C@@H](O)[C@H](n4cnc5c(N)ncnc54)O[C@@H]3CO[P@](=O)(S)O[C@H]2[C@H]1O	gdpP residues 84-659	substrate, HPLC	–	100 µM, 37 °C, upper limit if undegraded 24 h, together with: enzyme 1 µM	–	degradation rate	≤ 0.001 mol/min/mol enzyme
CN1CC[C@@]2(C)c3cc(OC(=O)Nc4ccccc4)ccc3N(C)[C@@H]12	Cholinesterase (BCHE, Homo sapiens, UniProt P06276)	inhibitor, immobilized enzyme reactor, HPLC-UV	immobilized recombinant human enzyme	30 °C, after near-complete inhibition	–	decarbamoylation rate constant k3	2.59 ± 0.042 h⁻¹
NC(=O)N1CCC[C@H](NC(=O)c2nn(Cc3ccc(F)cc3)c3ccccc23)C1	CNR1	calcium mobilization, agonist	CHO-K1 expressing Gαq16	–	baseline: CP55,940 maximum	Emax	105 ± 1%
O=C(Cc1ccccc1F)N[C@H]1CCOC1=O	rhlR	reporter gene, agonist	Escherichia coli reporter strain	100 µM	baseline: BHL 900 µM	activation	66%
COc1ccc2c3c([nH]c2c1)[C@H](CC(C)C)N1C(=O)[C@H](CCC(=O)OC(C)(C)C)NC(=O)[C@@H]1C3	Abcb1a (Mus musculus, UniProt P21447)	inhibitor, PET	wild-type mice	i.v., 10 mg/kg, together with: (R)-[11C]verapamil	–	brain (R)-[11C]verapamil concentration	increased
Nc1ccn([C@H]2C[C@H](O)[C@@H](COP(=O)(O)OP(=O)(O)OP(=O)(O)O)O2)c(=O)n1	DNA polymerase IV, with DNA (dbh, Saccharolobus solfataricus, UniProt Q97W02)	nucleotide incorporation opposite dC, single-turnover extension of lesion bypass product	–	lesion bypass extension, together with: 21/26-mer dG-C8-N-ABA primer-template	–	misincorporation frequency	10.3%
O=S(=O)(O)Oc1ccc(-c2cccc(Cl)c2)cc1Cl	sulfatase, human liver microsomes	substrate	–	pH 7.4, 37 °C	–	Vmax	18 ± 2.8 nmol/min/mg
CCCCSS(C)(=O)=O	Gabrg2/GABRB2/Gabra1 (Rattus norvegicus, UniProt P18508+P47870+P62813, C260A/C282A/C312A/C319A/C341A/Q255C)	covalent modifier, two-electrode voltage clamp	Xenopus laevis oocytes	0.5 mM, labelled without GABA, together with: GABA EC10	baseline: before labelling	GABA current	decreased
Clc1cc(Cl)c(-c2cc(Cl)c(Cl)cc2Cl)cc1Cl	Ryanodine receptor 1	[3H]ryanodine binding	rainbow trout, skeletal muscle microsomes	–	–	EC20	5.81 µM
NC(=O)c1cccc(CNC(=O)c2nn(Cc3ccc(F)cc3)c3ccccc23)c1	CNR1	calcium mobilization, agonist	CHO-K1 expressing Gαq16	–	baseline: CP55,940 maximum	Emax	100%
C[C@H]1CCCC(=O)CCC/C=C/c2cc(O)cc(O)c2C(=O)O1	zhd101 (Clonostachys rosea, UniProt Q8NKB0, E171K)	substrate, HPLC	–	10 min, pH 5.5, 37 °C, 1% acetonitrile	–	Km	45.3 ± 1.24 mM
KQTARKSTGGWW (myristoyl-Lys9)	HDAC8 (Homo sapiens, UniProt Q9BY41)	substrate, HPLC	peptide	1 µM, 1 h, pH 8, 37 °C	–	kcat/Km	120 ± 11 M⁻¹ s⁻¹
O=C(Cc1ccccc1)NC1CCOC1=O (stereo not shown)	rhlR	reporter gene, agonist	Escherichia coli reporter strain	100 µM	baseline: BHL 900 µM	activation	84%
anthraquinone-neomycin	poly(dA)•2poly(dT) DNA triplex	DNA binding, CD titration	–	concentration not given, pH 5.5, KCl 150 mM	–	binding site size	7.5 base triplets
CC[C@H](C)[C@H](NC(=O)[C@H](CCCNC(=N)N)NC(=O)[C@H](CCCNC(=N)N)NC(=O)[C@H](CC(C)C)NC(=O)[C@H](CCC(N)=O)NC(=O)[C@H](CCC(=O)O)NC(=O)[C@H](C)NC(=O)[C@@H](NC(=O)[C@H](CNC(=O)c1cc(S(=O)(=O)F)ccc1OC)NC(C)=O)[C@@H](C)CC)C(=O)NCC(=O)N[C@@H](CC(=O)O)C(=O)N[C@@H](CCCNC(=N)N)C(=O)N[C@@H](Cc1ccccc1)C(N)=O	MCL1 (Homo sapiens, UniProt Q07820)	cell-free assay, inhibitor	–	–	–	kinact	0.0157 s⁻¹
Nc1ncnc2c1ncn2[C@@H]1O[C@@H]2COP(=O)(O)O[C@H]3[C@@H](F)[C@H](n4cnc5c(N)ncnc54)O[C@@H]3COP(=O)(O)O[C@H]2[C@H]1O	gdpP residues 84-659	substrate, HPLC	–	100 µM, 37 °C, upper limit if undegraded 24 h, together with: enzyme 1 µM	–	degradation rate	0.17 ± 0.01 mol/min/mol enzyme
DNRDGNVYYF	Serine endoprotease DegS (degS, Escherichia coli, UniProt P0AEE3, D320A/H198P)	–	peptide	30 µM, 23 °C, enzyme 0.1 µM trimer, together with: saturating OMP peptide	–	Hill coefficient	1.1 ± 0.1
TVNKTERAY	Antigen peptide transporter 1/Antigen peptide transporter 2 (Homo sapiens, UniProt Q03518+Q03519)	substrate, radiolabelled peptide transport	peptide, LCL721, streptolysin O-permeabilised	concentration not given	baseline: input	translocated peptide	4 to 5%
Clc1ccc(Cl)c(-c2cc(Cl)c(Cl)cc2Cl)c1	Ryanodine receptor 1	[3H]ryanodine binding	rainbow trout, skeletal muscle microsomes	up to 20 µM	baseline: DMSO	Emax	194 ± 7.99%
COC1C(OC(=O)c2ccc(C)[nH]2)C(O)C(Oc2ccc3c(O)c(NC(=O)c4ccc(O)c(CC=C(C)C)c4)c(=O)oc3c2Cl)OC1(C)C (stereo not shown)	galE (Trypanosoma brucei, UniProt Q8T8E9)	enzyme activity, inhibitor, HPAEC	–	30 µM, together with: UDP-galactose substrate, 0.06% n-octylglucopyranoside	–	change in inhibition with detergent	no effect
C#CCOc1cccc(-c2cc(=O)c3ccccc3o2)c1	Cytochrome P450 1A1 (CYP1A1, Homo sapiens, UniProt P04798)	EROD activity, mechanism-based inhibitor	–	–	–	kinact	0.0015 s⁻¹
NC(=O)C1=CN([C@@H]2O[C@H](COP(=O)(O)OP(=O)(O)OC[C@H]3O[C@@H](n4cnc5c(N)ncnc54)[C@H](O)[C@@H]3O)[C@@H](O)[C@H]2O)C=CC1	S-adenosylhomocysteine hydrolase Trypanosoma cruzi K431A	–	–	concentration not given, enzyme as isolated	detection limit	active-site occupancy	< 0.1%
C[C@@H]1CN(c2ccccn2)C(=O)c2cc(COc3ccc(Cl)cn3)nn21	Grm5 (Rattus norvegicus, UniProt P31424)	calcium mobilisation, allosteric modulator	rat mGlu5-expressing cells	concentration not given	–	activity class	inactive
CC(=O)N[C@H]1[C@H](OCCN)O[C@H](CO)[C@@H](O[C@@H]2O[C@H](CO)[C@H](O[C@H]3O[C@H](CO)[C@H](O)[C@H](O[C@@H]4O[C@H](CO)[C@H](O)[C@H](O)[C@H]4NC(C)=O)[C@H]3O)[C@H](O)[C@H]2O)[C@@H]1O	Agglutinin (Sclerotinia sclerotiorum, UniProt A7XUK7)	glycan array	–	concentration not given, pH 7.4, room temperature	–	lectin binding	16800 ± 1710 RFU
